Experimental data from different studies.
Protocols differ between the studies behind these lines.

SMILES = Cc1cc(C)c(CNC(=O)c2cc(Cl)c3c(c2C)O[C@@](C)([C@H]2CC[C@H](N(C)C)CC2)O3)c(=O)[nH]1; system = human, plasma; conditions = oral, 200 mg, cycle 1 day 15; measurement = half-life total drug; result = 11.1 h
SMILES = O=C(O)CCC(=O)O.[2H]C([2H])([2H])Oc1cc(C)c2[nH]ccc2c1CN1CC[C@@H](C2CC2)C[C@H]1c1ccc(C(=O)O)cc1; assay = LC-MS/MS, mean; system = human, plasma; conditions = 100 mg, single dose, fasting; measurement = half-life; result = 23.6 h
SMILES = CC(C)(Sc1ccncc1-c1ccc(C#N)c2ccccc12)C(=O)O; system = human; conditions = oral, 5 mg once daily, together with: febuxostat 0 mg; measurement = half-life; result = 21.3 h
SMILES = C=CC(=O)N(C)CCOc1c(N)ncnc1-c1cc(F)cc(NC(=O)c2ccc(C3CC3)cc2F)c1C; system = human, whole blood; conditions = oral, 60 mg, single ascending dose, median; measurement = half-life; result = 1.03 h
SMILES = COc1ncc(-c2nc3c(n2C(C)C)[C@H](c2ccc(Cl)cc2)N(c2cc(Cl)cn(C)c2=O)C3=O)c(OC)n1; assay = LC-MS/MS, noncompartmental; system = human, plasma; conditions = oral, 25 mg, low-dose, median; measurement = half-life; result = 12.4 h
SMILES = O=C(COc1ccc(Cl)cc1)NC12CC(c3nnc([C@H]4C[C@@H](OC(F)(F)F)C4)o3)(C1)C2; system = healthy human volunteers fasted, plasma; conditions = oral, 800 mg single dose, arithmetic mean; measurement = half-life; result = 44.6 h
SMILES = Cc1nc(-c2ccc(OCC(C)C)c(C#N)c2)sc1C(=O)O; system = human, plasma; conditions = oral, 10 mg once daily, together with: verinurad 5 mg; measurement = half-life; result = 7.14 h
SMILES = Cc1cc(Nc2ncnc3ccc(NC4=NC(C)(CO)CO4)cc23)ccc1Oc1ccn2ncnc2c1 (stereo not shown); system = human, plasma; conditions = oral, 300 mg tucatinib single dose, day 1, tucatinib alone; measurement = half-life (arithmetic mean); result = 10.3 h
SMILES = N#Cc1ccc2c(c1)[C@H]1CCCN(C(=O)c3ccc4[nH]cnc4c3)[C@H]1C2; system = human, plasma; conditions = oral, 80 mg once daily, steady state; measurement = half-life steady state; result = 97.5 h
SMILES = COC(=O)N[C@@H](C)CNc1nccc(-c2cn(C(C)C)nc2-c2cc(Cl)cc(NS(C)(=O)=O)c2F)n1; system = humans, plasma; conditions = oral, day 1, single dose, together with: binimetinib; measurement = half-life geometric mean; result = 3.77 h
SMILES = COc1cc(C(=O)NC2CCN(C)CC2)c(F)cc1Nc1ncc(C(F)(F)F)c(Oc2cccc3c2C(=O)N(C)C3)n1; system = human, Taiwanese, plasma; conditions = oral, 200 mg once daily multiple dose, geometric mean; measurement = half-life steady state; result = 19 h
SMILES = CCNCc1cc(Nc2ccnc3cc(Cl)ccc23)ccc1O; system = humans, both sexes, plasma; conditions = oral, outlier included; scale = reference: fixed over non-fixed combination; measurement = half-life ratio; result = 0.84
SMILES = CO[C@H]1C[C@@H]2CC[C@@H](C)[C@@](O)(O2)C(=O)C(=O)N2CCCC[C@H]2C(=O)O[C@H]([C@H](C)C[C@@H]2CC[C@@H](OC(=O)NCCOCCOCCOCCOCCOCCOCCOCCOCCC(=O)N3CCc4cc(Cn5nc(-c6ccc7oc(N)nc7c6)c6c(N)ncnc65)ccc4C3)[C@H](OC)C2)C[C@@H](O)[C@H](C)/C=C(\C)[C@@H](O)[C@@H](OC)C(=O)[C@H](C)C[C@H](C)/C=C/C=C/C=C/1C; system = human, plasma; conditions = intravenous, 6 mg, cycle 1 day 15, arithmetic mean; measurement = half-life; result = 4 h

A few entries again:
SMILES = O=C(COc1ccc(Cl)cc1)NC12CC(c3nnc([C@H]4C[C@@H](OC(F)(F)F)C4)o3)(C1)C2; system = healthy human volunteers fasted, plasma; conditions = oral, 800 mg single dose, arithmetic mean; measurement = half-life; result = 44.6 h
